Assay results from different studies.
Each numbered part is a random draw from the data of one study; scales do not carry over between parts. Changes are numbered by the printed parent chain.
Sequence of UniProt P61077 (whole entry, looked up): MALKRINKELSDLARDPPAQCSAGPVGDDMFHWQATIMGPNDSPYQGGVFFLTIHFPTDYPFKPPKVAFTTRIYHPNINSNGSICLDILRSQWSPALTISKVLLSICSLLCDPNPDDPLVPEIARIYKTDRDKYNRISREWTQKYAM
Sequence of UniProt Q96B02 (whole entry, looked up): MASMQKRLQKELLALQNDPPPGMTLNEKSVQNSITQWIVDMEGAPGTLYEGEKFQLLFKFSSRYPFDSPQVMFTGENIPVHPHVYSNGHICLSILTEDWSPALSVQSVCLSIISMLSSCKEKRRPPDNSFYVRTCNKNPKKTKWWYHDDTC
Sequence of UniProt P49459 (whole entry, looked up): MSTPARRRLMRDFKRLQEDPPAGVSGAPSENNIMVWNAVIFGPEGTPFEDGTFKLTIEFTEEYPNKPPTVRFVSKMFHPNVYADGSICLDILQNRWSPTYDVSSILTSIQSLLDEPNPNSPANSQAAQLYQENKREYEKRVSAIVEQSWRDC

Series 1
Target: HLA class I histocompatibility antigen, A alpha chain, allele A*80:01 (Homo sapiens, UniProt P04439)
Read-out: peptide-MHC binding
Molecule type: peptide
Concentration: concentration not given
Sequence | binding
KGMKIQHFK | inactive
MTRGILGSY | inactive
YSQESPQSY | inactive
ETIEILRNY | active
KVIEKMEVL | inactive
MPIAAAIGT | inactive
GTIIVHPNK | inactive

Series 2
Target: Centromere-binding protein 1, full length, His-tagged (CBF1, Saccharomyces cerevisiae, UniProt P17106, residues 1-351)
Sequence of UniProt P17106 (whole entry, looked up): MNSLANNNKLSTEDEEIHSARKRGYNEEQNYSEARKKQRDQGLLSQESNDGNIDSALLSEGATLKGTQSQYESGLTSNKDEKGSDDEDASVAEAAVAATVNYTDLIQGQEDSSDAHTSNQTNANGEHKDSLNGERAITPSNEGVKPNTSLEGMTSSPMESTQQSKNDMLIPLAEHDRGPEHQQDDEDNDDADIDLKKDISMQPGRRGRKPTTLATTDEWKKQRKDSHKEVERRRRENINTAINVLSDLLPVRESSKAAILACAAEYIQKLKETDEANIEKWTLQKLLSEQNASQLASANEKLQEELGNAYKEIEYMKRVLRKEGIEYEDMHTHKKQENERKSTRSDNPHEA
Method: competition protein-binding microarray
Molecule type: double-stranded DNA, one strand shown
Matrix: in vitro
Concentration: 2 µM
Notes: whole 60-bp probe, lowest competitor level
With: Pho4 competitor, 0.05 µM
Direction: higher = stronger binding
Strand | fluorescence intensity
GAAGTAACTTGATACGTCGTGGGTAAATGGGTCTGTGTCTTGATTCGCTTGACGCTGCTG | 82.9 a.u.
GCTGTTGAGTTTGCGGACGTGTCGGAGAGCGCGTAGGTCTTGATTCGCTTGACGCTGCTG | 59.6 a.u.
CCCGCCCAAGCCGACCACGTGCCGCGAGCCCGGCGGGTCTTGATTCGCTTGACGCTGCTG | 2040 a.u.
CTTCTGTAAATTTGTCCTGTGGGTGGACGCGCCCCGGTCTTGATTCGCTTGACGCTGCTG | 78 a.u.
AATCGCTATCACTTACATGTGATATCATTTCTGTACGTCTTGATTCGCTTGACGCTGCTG | 653 a.u.
CTAACGAAGGTTTGTGACGTGGGTGACAAGCCAAGTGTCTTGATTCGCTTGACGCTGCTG | 63.7 a.u.
GTCTTGTCTCATTTCCACGTGTTTTTCCCCACTTCAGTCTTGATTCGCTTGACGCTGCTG | 634 a.u.
CTTCCTGTGGATTTTCACGGGCCGTCCCAAGCGCAAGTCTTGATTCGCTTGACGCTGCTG | 63.3 a.u.

Series 3
Target: CCNB3, cyclin fold, Cln2 fusion (human)
Method: yeast growth competition, sequencing
Matrix: yeast
Notes: strong parent motif
Baseline: not given
Direction: higher = stronger binding
Starting sequence: viral docking peptide; YKVKRRLVFGADD; partner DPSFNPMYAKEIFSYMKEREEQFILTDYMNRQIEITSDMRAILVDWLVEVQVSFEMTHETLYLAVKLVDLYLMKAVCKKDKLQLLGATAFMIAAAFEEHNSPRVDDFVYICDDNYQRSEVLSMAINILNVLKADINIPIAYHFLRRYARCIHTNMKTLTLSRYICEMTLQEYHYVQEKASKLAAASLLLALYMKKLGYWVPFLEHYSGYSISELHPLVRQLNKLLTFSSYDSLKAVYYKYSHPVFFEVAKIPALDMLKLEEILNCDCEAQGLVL
Variant | normalised enrichment score
K2G | 2.68
D12H | 1.11
K2S | 2.26
A11I | 2.03
V8I | 1.85
L7S | 0.399
G10H | 1.38
K2F | 1.47
F9C | 0.055
V3A | 1.03
V8M | 1.29
K2P | 2.68
D12L | 1.41
R6F | 0.402
F9R | -0.303
R5N | -0.116
A11Q | 1.76
K4G | 0.317
K2D | 2.43
V8D | 3.14
G10I | 1.25
D12I | 1.34
R5F | -0.0531
R6T | 3.18
G10T | 1.98

Series 4
Target: ABI1, truncated, D143A, DHFR fusion (Arabidopsis thaliana)
Method: DHFR PCA, deep sequencing
Matrix: yeast
Notes: methotrexate growth selection, single substitutions
With: (+)-ABA 58 µM
Baseline: wild-type fitted maximum
Direction: higher = stronger binding
Starting sequence: PYL1, truncated, DHFR fusion (Arabidopsis thaliana); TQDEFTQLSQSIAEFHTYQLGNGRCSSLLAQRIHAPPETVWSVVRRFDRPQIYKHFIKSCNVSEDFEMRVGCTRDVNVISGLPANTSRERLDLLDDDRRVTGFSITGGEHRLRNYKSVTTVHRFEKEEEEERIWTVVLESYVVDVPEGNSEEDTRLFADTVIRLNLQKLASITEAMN; partner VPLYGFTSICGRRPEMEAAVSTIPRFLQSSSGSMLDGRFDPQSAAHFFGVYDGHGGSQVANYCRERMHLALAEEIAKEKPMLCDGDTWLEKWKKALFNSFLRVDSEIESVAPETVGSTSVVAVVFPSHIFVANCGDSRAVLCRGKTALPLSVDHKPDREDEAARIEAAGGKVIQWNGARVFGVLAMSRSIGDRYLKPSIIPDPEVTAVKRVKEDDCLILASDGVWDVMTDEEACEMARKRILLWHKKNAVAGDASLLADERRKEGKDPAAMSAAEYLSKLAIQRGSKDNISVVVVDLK
Variant | relative binding score [%]
N165D | 24.4
F5A | 81.5
I172Q | 54.3
F5G | 77.7
V118S | 41.1
V145K | 46.6
V143K | -13.5
V62T | 79

Series 5
Sequence: FASPPDSNFVCSVCHGVLKRPARLPCSHIFCKKCILRWLARQKTCPCCRKEVKRKKVVH (RNF151 RING domain (UniProt Q2KHN1))
Method: yeast two-hybrid
Matrix: yeast
Notes: mostly zero background
Baseline: not given
Direction: higher = stronger interaction
target | lacZ reporter activity
UBE2A UBC core domain (UniProt P49459) | 0
UBE2W UBC core domain (UniProt Q96B02) | 0
UBE2D3 UBC core domain (UniProt P61077) | 0

Excerpt of the above (series 2):
Strand | fluorescence intensity
GAAGTAACTTGATACGTCGTGGGTAAATGGGTCTGTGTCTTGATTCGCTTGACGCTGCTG | 82.9 a.u.
GCTGTTGAGTTTGCGGACGTGTCGGAGAGCGCGTAGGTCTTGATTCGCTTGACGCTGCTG | 59.6 a.u.
GTCTTGTCTCATTTCCACGTGTTTTTCCCCACTTCAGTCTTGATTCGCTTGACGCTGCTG | 634 a.u.
CTAACGAAGGTTTGTGACGTGGGTGACAAGCCAAGTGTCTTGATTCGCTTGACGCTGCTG | 63.7 a.u.
CCCGCCCAAGCCGACCACGTGCCGCGAGCCCGGCGGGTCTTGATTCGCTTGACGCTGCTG | 2040 a.u.
CTTCCTGTGGATTTTCACGGGCCGTCCCAAGCGCAAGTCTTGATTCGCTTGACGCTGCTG | 63.3 a.u.
AATCGCTATCACTTACATGTGATATCATTTCTGTACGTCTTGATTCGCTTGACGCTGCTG | 653 a.u.
CTTCTGTAAATTTGTCCTGTGGGTGGACGCGCCCCGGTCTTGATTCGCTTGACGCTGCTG | 78 a.u.
